Experimental data gathered from unrelated publications.
Each line is one published result; not all experiments were run side by side. Numbers after ± are the reported error. No end group written: not given here.
Gnao1: Gnao1, AlexaFluor 532 label (Rattus norvegicus, UniProt P59215)
Sequence of UniProt P59215 (whole entry, looked up): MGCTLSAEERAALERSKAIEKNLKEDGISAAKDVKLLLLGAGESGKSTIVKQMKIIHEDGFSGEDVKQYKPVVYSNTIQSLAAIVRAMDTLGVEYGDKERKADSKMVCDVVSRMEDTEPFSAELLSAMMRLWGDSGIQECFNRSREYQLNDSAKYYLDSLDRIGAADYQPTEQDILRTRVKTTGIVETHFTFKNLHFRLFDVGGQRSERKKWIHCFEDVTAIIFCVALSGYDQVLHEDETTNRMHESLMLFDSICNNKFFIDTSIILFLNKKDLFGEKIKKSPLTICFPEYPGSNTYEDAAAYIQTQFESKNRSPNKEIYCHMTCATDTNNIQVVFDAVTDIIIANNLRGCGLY
B1: ftsZ (Bacillus subtilis, UniProt P17865); sequence looked up; chain MLEFETNIDGLASIKVIGVGGGGNNAVNRMIENEVQGVEYIAVNTDAQALNLSKAEVKMQIGAKLTRGLGAGANPEVGKKAAEESKEQIEEALKGADMVFVTAGMGGGTGTGAAPVIAQIAKDLGALTVGVVTRPFTFEGRKRQLQAAGGISAMKEAVDTLIVIPNDRILEIVDKNTPMLEAFREADNVLRQGVQGISDLIATPGLINLDFADVKTIMSNKGSALMGIGIATGENRAAEAAKKAISSPLLEAAIDGAQGVLMNITGGTNLSLYEVQEAADIVASASDQDVNMIFGSVINENLKDEIVVTVIATGFIEQEKDVTKPQRPSLNQSIKTHNQSVPKREPKREEPQQQNTVSRHTSQPADDTLDIPTFLRNRNKRG
B2: dinB (Escherichia coli, UniProt Q47155); sequence looked up; chain MRKIIHVDMDCFFAAVEMRDNPALRDIPIAIGGSRERRGVISTANYPARKFGVRSAMPTGMALKLCPHLTLLPGRFDAYKEASNHIREIFSRYTSRIEPLSLDEAYLDVTDSVHCHGSATLIAQEIRQTIFNELQLTASAGVAPVKFLAKIASDMNKPNGQFVITPAEVPAFLQTLPLAKIPGVGKVSAAKLEAMGLRTCGDVQKCDLVMLLKRFGKFGRILWERSQGIDERDVNSERLRKSVGVERTMAEDIHHWSECEAIIERLYPELERRLAKVKPDLLIARQGVKLKFDDFQQTTQEHVWPRLNKADLIATARKTWDERRGGRGVRLVGLHVTLLDPQMERQLVLGL
B3: TIMP1 mature (Homo sapiens, UniProt P01033); sequence looked up; chain CTCVPPHPQTAFCNSDLVIRAKFVGTPEVNQTTLYQRYEIKMTKMYKGFQALGDAADIRFVYTPAMESVCGYFHRSHNRSEEFLIAGKLQDGLLHITTCSFVAPWNSLSLAQRRGFTKTYTVGCEECTVFPCLSIPCKLQSGTHCLWTDQLLQGSEKGFQSRHLACLPREPGLCTWQSLRSQIA
B4: RGS8 GST fusion (UniProt P49804); sequence looked up; chain MAALLMPRRNKGMRTRLGCLSHKSDSCSDFTAILPDKPNRALKRLSTEEATRWADSFDVLLSHKYGVAAFRAFLKTEFSEENLEFWLACEEFKKTRSTAKLVTKAHRIFEEFVDVQAPREVNIDFQTREATRKNMQEPSLTCFDQAQGKVHSLMEKDSYPRFLRSKMYLDLLSQSQRRLS
B5: HMGB1 A box; chain MGKGDPKKPRGKMSSYAFFVQTCREEHKKKHPDASVNFSEFSKKCSERWKTMSAKEKGKFEDMAKADKARYEREMKTYIPPKGET
B6: MAP2K5 PB1 domain 16-130 (Homo sapiens, UniProt Q13163); iodoacetamidofluorescein label; chain VLVIRIKIPNSGAVDWTVHSGPQLLFRDVLDVIGQVLPEATTTAFEYEDEDGDRITVRSDEEMKAMLSYYYSTVMEQQVNGQLIEPLQIFPRACKPPGERNIHGLKVNTRAGPSQ
B7: RAVER1 59-130 (Homo sapiens, UniProt Q8IY67); sequence looked up; chain RKILIRGLPGDVTNQEVHDLLSDYELKYCFVDKYKGTAFVTLLNGEQAEAAINAFHQSRLRERELSVQLQPT
B8: RGS16 (Homo sapiens, UniProt O15492); sequence looked up; chain MCRTLAAFPTTCLERAKEFKTRLGIFLHKSELGCDTGSTGKFEWGSKHSKENRNFSEDVLGWRESFDLLLSSKNGVAAFHAFLKTEFSEENLEFWLACEEFKKIRSATKLASRAHQIFEEFICSEAPKEVNIDHETHELTRMNLQTATATCFDAAQGKTRTLMEKDSYPRFLKSPAYRDLAAQASAASATLSSCSLDEPSHT
B9: MIF4GD E200A (Homo sapiens, UniProt A9UHW6); sequence looked up; chain MGEPSREEYKIQSFDAETQQLLKTALKDPGAVDLEKVANVIVDHSLQDCVFSKEAGRMCYAIIQAESKQAGQSVFRRGLLNRLQQEYQAREQLRARSLQGWVCYVTFICNIFDYLRVNNMPMMALVNPVYDCLFRLAQPDSLSKEEEVDCLVLQLHRVGEQLEKMNGQRMDELFVLIRDGFLLPTGLSSLAQLLLLEIIAFRAAGWKTTPAAHKYYYSEVSD
Sequence of UniProt P14780 (whole entry, unmodified, looked up): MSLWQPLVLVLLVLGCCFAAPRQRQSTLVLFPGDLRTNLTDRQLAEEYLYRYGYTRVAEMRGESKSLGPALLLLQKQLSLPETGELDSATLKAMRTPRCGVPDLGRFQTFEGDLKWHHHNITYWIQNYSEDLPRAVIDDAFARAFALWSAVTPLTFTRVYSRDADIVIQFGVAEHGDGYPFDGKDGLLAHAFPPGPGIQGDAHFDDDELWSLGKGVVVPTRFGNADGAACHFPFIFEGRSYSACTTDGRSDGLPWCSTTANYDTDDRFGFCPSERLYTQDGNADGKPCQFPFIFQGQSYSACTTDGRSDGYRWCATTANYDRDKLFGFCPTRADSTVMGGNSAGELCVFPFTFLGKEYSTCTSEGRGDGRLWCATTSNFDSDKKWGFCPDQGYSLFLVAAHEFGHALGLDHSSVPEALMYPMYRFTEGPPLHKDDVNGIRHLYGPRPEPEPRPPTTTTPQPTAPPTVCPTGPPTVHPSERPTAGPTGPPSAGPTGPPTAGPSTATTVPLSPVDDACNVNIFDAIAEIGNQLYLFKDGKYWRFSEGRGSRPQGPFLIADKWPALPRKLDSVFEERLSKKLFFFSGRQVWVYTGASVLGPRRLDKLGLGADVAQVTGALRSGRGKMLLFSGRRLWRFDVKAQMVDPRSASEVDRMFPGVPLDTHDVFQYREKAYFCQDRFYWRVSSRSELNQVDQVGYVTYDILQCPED
Sequence of UniProt P04775 (whole entry, unmodified, looked up): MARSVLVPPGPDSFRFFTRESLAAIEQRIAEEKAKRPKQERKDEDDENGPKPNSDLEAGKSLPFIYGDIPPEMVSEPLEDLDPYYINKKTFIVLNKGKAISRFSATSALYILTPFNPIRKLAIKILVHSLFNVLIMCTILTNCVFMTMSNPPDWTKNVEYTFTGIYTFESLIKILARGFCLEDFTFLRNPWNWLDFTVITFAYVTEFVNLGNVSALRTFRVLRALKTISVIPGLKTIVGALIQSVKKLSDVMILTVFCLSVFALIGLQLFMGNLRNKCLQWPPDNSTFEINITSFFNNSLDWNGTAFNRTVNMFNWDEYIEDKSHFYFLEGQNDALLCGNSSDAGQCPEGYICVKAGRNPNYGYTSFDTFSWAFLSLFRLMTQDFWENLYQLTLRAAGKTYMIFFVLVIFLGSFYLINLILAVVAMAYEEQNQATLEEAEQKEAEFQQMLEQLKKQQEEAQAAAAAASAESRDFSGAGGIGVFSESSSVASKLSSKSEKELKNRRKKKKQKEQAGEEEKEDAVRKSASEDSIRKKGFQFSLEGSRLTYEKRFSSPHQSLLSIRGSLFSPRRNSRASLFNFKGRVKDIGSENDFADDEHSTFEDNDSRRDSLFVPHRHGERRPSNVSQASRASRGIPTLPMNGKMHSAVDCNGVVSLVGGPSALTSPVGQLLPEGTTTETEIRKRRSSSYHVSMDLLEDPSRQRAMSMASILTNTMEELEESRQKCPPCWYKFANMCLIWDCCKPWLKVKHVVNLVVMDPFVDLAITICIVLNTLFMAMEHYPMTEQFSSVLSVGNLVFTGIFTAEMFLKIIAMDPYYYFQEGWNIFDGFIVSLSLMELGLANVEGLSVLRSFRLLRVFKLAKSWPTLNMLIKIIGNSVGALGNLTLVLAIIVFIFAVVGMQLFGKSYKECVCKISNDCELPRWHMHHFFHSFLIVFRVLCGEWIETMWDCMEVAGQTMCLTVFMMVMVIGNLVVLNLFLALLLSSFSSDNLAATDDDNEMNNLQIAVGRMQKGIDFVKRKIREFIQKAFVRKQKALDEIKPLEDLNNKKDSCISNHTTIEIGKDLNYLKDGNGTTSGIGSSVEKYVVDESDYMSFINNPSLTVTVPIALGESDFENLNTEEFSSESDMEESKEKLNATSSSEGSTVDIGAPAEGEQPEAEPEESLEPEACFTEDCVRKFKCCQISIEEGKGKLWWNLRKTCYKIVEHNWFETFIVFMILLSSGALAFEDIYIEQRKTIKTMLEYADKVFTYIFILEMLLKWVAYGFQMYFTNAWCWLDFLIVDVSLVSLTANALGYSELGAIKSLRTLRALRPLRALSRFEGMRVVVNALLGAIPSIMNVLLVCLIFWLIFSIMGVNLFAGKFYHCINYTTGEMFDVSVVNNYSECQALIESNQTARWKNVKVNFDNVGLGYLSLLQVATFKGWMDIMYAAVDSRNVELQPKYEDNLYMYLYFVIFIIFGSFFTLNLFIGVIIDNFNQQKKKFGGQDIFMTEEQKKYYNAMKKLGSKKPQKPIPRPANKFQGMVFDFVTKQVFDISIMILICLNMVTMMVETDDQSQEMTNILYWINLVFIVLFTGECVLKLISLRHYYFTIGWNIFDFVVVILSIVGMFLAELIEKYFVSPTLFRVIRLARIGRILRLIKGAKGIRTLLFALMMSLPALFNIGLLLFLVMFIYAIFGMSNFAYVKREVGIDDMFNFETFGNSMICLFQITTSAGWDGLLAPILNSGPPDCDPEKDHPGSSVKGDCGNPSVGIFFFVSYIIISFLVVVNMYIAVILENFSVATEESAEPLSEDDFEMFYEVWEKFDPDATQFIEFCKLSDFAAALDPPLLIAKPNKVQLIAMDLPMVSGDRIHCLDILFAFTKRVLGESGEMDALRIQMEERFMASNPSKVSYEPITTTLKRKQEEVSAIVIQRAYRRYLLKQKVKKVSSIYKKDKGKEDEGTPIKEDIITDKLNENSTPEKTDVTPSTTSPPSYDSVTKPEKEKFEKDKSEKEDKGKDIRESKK
Sequence of UniProt P32780 (whole entry, looked up): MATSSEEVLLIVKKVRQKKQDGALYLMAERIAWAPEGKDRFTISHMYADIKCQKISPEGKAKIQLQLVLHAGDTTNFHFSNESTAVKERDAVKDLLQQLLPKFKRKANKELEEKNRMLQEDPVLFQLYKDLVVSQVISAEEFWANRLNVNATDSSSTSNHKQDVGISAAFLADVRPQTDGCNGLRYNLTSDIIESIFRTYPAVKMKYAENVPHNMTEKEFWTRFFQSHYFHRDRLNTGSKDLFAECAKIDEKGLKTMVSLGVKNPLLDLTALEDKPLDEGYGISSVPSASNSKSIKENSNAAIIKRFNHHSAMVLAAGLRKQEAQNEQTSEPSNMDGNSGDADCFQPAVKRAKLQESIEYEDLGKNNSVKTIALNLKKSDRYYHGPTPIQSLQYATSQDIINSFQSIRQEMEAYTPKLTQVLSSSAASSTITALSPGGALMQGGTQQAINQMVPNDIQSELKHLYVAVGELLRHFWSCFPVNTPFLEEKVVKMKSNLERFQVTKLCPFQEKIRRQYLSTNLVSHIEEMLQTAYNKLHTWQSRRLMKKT
Sequence of UniProt Q14493 (whole entry, looked up): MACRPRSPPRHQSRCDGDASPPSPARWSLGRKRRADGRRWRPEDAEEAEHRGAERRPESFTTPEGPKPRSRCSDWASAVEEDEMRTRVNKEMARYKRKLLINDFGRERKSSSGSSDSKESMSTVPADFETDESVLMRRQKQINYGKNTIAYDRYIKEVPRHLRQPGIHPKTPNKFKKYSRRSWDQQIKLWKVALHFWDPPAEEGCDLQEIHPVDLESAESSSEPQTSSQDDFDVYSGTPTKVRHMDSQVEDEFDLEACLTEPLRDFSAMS
Sequence of UniProt P54166 (whole entry, unmodified, looked up): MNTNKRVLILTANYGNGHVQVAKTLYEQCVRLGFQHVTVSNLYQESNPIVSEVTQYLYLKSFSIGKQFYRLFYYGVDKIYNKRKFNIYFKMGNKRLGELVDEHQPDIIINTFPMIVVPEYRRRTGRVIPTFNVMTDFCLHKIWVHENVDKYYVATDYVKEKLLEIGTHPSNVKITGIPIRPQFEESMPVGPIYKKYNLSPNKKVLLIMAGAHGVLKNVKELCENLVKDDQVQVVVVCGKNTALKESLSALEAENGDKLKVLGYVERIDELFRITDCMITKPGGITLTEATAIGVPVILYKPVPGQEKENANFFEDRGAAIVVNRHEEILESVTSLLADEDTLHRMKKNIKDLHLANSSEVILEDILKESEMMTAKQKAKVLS
Sequence of UniProt Q99469 (whole entry, looked up): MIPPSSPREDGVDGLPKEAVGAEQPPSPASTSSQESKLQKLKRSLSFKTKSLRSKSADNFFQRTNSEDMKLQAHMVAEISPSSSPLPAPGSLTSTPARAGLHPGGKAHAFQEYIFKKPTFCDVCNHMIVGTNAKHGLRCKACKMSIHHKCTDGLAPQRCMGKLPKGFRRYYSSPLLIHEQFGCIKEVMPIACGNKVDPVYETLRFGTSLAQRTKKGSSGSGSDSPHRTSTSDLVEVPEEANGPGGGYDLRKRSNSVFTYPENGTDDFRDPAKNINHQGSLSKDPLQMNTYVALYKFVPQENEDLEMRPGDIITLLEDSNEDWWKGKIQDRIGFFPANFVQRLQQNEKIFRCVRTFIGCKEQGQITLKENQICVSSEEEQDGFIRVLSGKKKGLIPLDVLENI
Sequence of UniProt P40013 (whole entry, looked up): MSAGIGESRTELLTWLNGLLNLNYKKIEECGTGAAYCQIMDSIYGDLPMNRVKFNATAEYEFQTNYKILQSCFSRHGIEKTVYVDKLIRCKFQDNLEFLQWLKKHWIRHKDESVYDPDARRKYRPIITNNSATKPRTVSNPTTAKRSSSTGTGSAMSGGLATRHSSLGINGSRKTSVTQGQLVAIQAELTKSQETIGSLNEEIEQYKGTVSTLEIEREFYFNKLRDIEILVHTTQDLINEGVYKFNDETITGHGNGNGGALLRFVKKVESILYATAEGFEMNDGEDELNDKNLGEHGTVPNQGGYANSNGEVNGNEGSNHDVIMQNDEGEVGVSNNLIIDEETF

| Substance | tested on | assay | test system | conditions | measurement | result |
| --- | --- | --- | --- | --- | --- | --- |
| UGT1A9 (Homo sapiens, UniProt O60656) | CCCOc1ccc(O)cc1 | steady-state kinetics |  | pH 7.4, 37 °C | Vmax/Km | 10 µL/min/mg |
| DGGTMENLSRRLQVTGDLFDIMSGQT (BECN1 105-130 K117Q (Homo sapiens, UniProt Q14457); sequence looked up) | BCL2 1-218 (Homo sapiens, UniProt P10415) | ITC | peptide | pH 7.5, 25 °C, NaCl 150 mM, independent binding model | Kd | 24500 ± 6000 nM |
| ANK2 fragment (Homo sapiens) | SCN2A 1080-1203 E1111A, CK2 phosphorylated (UniProt P04775) | SPR |  | pH 7.4, 25 °C, NaCl 150 mM | Kd | 24 nM |
| B1 (ftsZ) | UgtP F112A/V117A/E306A/N309A (Bacillus subtilis, UniProt P54166) | BLI |  | pH 8.0, 30 °C, NaCl 100 mM, without UDP-glc | Kd | 16 nM |
| RKQLATKAARK(Ac)S (histone H3 18-29 (UniProt P68431); acetylated K27; sequence looked up) | MLLT1 1-148 (Homo sapiens, UniProt Q03111) | ITC | peptide | pH 7.5, 15 °C, NaCl 500 mM | Kd | 30500 nM |
| PGYPNGLLSGDEDFSSIADMDFSALLSQISS (RELA 521-551 L523Y (Homo sapiens, UniProt Q04206); sequence looked up) | GTF2H1 1-108 (Homo sapiens, UniProt P32780) | ITC | peptide | pH 7.4, 25 °C | Kd | 23000 ± 4000 nM |
| EDGGSAWYGAMKALYG (designed peptide F1A) | CIB1 (Homo sapiens, UniProt Q99828) | ITC | peptide | 25 °C, added: CaCl2 0.1 mM | Kd | 2650 nM |
| CIKVAVS |  |  | peptide, human polyclonal IgM RF STR | concentration not given, 5 µg/mL mAb II-481 coated, added: RF at 50% max binding concentration | inhibition | 0% |
| B2 (dinB) | dnaN 1-366 148-152 to poly-Ala (Escherichia coli, UniProt P0A988) | SPR |  | pH 7.4, NaCl 150 mM | Kd | 680 nM |
| B3 (TIMP1 mature) | MMP9 proMMP-9, trimer E402A (Homo sapiens, UniProt P14780) | SPR |  | pH 7.4 | Kd | 0.12 nM |
| SYRKAIDAATQTEE (FAM83D 414-425 P425E (Homo sapiens)) | ctp 1-89 (Drosophila melanogaster, UniProt Q24117) | ITC | peptide | pH 7.5, 25 °C, NaCl 50 mM | Kd | 400 ± 100 nM |
| EDEPEIPLSPRPRP (CACNA1S 747-760 (Homo sapiens, UniProt Q13698); sequence looked up) | STAC 288-402 (Homo sapiens, UniProt Q99469) | ITC | peptide | 25 °C | Kd | 3900 nM |
| anti-CD45 clone #4/nivolumab diabody bispecific diabody | PTPRC 26-577 (Homo sapiens, UniProt P08575) | SPR |  | 25 °C, equilibrium | Kd | 750 nM |
| SQSVLYS |  |  | peptide, human polyclonal IgM RF WEAK | concentration not given, 5 µg/mL mAb II-481 coated, added: RF at 50% max binding concentration | inhibition | 0% |
| KAR9 50-residue Site2 peptide (Saccharomyces cerevisiae) | BIM1 194-344 (Saccharomyces cerevisiae, UniProt P40013) | ITC |  | pH 7.5, 25 °C, NaCl 150 mM | Kd | 120 nM |
| GP6 fragment (Homo sapiens) | collagen III Toolkit peptide III-30, hydroxyproline, C-terminal amide (Homo sapiens) | ELISA |  |  | Kd | 3.2 ± 0.3 nM |
| B4 (RGS8 GST fusion) | Gnao1 | flow cytometry |  | added: GDP-AlF4- | Kd | 23 nM |
| F8 (Homo sapiens, UniProt P00451) | beta2-glycoprotein I/3B7 antibody (Homo sapiens/Mus musculus) | ELISA |  |  | Kd | 2.7 nM |
| B5 (HMGB1 A box) | TP53 (Homo sapiens, UniProt P04637) | BLI |  | 30 °C | Kd | 6.38 nM |
| SKTRGKAKVTGRWK (TNNT2 275-288 (Homo sapiens, UniProt P45379-6); sequence looked up) | TPM1 (Oryctolagus cuniculus, UniProt P58772) | SPR | peptide | pH 7.0, KCl 0.1 M | Kd | 6530 nM |
| ARTKQTARKSTG (Histone H3.1 2-13 (Homo sapiens, UniProt P68431); sequence looked up) | BIRC2 fragment (Homo sapiens) | tryptophan fluorescence titration | peptide | pH 6.8, 25 °C, NaCl 150 mM | Kd | 720 nM |
| B6 (MAP2K5 PB1 domain 16-130) | MAPK1 1-360 (Homo sapiens, UniProt P28482) | fluorescence polarisation |  | pH 8.0, NaCl 100 mM | Kd | > 100000 nM |
| B7 (RAVER1 59-130) | VCL 879-1066 (Homo sapiens, UniProt P18206-2) | ITC |  | pH 8, 23 °C, NaCl 150 mM | Kd | 22100 nM |
| B8 (RGS16) | Gnao1 | flow cytometry |  | added: GDP-AlF4- | Kd | 54 nM |
| ARTKQTARKSTG (Histone H3.1 2-13 (Homo sapiens, UniProt P68431)) | EP300 1287-1663 Y1467F (Homo sapiens, UniProt Q09472) | tryptophan fluorescence titration | peptide | two-site model | Kd | 38000 nM |
| B9 (MIF4GD E200A) | SLBP, phosphorylated, multiple sites (Homo sapiens, UniProt Q14493) | SPR |  | pH 7.4, 25 °C, NaCl 150 mM | Kd | 66 ± 20 nM |
